Published values gathered from unrelated publications.
Lines come from different studies, so protocols differ. ± marks the error that the study gave.
MAPK8: Mitogen-activated protein kinase 8 (MAPK8, Homo sapiens, UniProt P45983)
PRKCA: Protein kinase C alpha type (PRKCA, Homo sapiens, UniProt P17252)

Sequences of proteins named here, by UniProt entry; tags and fusion partners are left off. Residues count along the entry.
UniProt P45983, whole entry: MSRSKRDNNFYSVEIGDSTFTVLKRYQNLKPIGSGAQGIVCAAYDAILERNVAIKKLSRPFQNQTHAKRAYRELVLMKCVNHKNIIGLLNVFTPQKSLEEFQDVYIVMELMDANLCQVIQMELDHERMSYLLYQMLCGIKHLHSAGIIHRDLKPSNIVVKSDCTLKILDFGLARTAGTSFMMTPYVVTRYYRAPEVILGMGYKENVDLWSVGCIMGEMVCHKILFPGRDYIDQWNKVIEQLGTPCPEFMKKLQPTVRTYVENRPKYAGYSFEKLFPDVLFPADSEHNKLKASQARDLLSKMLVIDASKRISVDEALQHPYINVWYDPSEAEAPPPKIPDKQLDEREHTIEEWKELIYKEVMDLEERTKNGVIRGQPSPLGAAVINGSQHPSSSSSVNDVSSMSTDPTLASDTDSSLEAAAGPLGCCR
UniProt P40261, whole entry: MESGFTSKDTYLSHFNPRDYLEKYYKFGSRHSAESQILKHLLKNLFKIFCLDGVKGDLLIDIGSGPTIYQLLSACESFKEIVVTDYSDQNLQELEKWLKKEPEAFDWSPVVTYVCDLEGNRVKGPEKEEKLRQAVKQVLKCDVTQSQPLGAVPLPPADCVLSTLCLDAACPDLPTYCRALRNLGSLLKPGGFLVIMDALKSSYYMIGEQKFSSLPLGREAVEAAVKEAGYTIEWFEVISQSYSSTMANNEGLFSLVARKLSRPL
UniProt Q04609, whole entry: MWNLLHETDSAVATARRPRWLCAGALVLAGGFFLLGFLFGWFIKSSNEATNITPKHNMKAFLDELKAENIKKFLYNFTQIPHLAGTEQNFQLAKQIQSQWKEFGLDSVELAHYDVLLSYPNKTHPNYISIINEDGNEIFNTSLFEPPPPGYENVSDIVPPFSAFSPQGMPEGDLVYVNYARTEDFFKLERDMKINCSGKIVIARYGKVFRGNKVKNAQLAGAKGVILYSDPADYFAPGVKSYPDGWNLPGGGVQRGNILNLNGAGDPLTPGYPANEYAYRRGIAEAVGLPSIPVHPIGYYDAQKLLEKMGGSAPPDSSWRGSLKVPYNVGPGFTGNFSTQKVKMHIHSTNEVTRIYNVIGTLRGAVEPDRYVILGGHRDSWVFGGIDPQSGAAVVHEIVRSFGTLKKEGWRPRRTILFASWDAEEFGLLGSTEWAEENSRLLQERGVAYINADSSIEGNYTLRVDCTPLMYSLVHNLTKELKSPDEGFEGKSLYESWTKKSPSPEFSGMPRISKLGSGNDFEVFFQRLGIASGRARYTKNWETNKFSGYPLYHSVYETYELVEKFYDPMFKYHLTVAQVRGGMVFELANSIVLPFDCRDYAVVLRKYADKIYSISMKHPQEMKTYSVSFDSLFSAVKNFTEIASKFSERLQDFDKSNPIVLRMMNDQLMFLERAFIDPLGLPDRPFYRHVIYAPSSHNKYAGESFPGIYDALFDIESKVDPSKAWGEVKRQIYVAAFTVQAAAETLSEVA
UniProt Q9EP80, whole entry: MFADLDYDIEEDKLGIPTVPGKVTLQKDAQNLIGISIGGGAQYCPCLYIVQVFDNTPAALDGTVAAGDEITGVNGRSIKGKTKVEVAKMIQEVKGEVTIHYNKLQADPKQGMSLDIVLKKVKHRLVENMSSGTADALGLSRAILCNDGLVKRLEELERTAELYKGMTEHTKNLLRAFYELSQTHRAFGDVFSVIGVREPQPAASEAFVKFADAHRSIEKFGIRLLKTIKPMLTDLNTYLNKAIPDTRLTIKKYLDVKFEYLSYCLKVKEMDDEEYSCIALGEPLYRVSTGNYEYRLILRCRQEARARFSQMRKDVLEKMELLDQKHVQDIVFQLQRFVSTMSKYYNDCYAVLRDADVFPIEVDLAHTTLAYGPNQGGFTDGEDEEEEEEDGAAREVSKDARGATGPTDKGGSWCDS
UniProt Q9U419, whole entry: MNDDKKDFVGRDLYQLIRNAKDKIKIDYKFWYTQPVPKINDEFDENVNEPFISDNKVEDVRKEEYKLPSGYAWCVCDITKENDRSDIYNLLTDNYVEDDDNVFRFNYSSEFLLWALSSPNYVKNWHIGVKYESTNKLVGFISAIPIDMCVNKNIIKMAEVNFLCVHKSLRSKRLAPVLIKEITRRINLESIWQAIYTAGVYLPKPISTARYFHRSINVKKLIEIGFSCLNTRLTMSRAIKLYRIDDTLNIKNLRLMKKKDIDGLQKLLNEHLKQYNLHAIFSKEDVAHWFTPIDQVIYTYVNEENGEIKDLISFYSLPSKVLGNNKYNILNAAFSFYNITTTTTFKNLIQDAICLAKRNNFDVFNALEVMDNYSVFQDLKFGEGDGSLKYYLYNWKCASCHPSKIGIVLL
UniProt P42260, 32-908 limits assumed: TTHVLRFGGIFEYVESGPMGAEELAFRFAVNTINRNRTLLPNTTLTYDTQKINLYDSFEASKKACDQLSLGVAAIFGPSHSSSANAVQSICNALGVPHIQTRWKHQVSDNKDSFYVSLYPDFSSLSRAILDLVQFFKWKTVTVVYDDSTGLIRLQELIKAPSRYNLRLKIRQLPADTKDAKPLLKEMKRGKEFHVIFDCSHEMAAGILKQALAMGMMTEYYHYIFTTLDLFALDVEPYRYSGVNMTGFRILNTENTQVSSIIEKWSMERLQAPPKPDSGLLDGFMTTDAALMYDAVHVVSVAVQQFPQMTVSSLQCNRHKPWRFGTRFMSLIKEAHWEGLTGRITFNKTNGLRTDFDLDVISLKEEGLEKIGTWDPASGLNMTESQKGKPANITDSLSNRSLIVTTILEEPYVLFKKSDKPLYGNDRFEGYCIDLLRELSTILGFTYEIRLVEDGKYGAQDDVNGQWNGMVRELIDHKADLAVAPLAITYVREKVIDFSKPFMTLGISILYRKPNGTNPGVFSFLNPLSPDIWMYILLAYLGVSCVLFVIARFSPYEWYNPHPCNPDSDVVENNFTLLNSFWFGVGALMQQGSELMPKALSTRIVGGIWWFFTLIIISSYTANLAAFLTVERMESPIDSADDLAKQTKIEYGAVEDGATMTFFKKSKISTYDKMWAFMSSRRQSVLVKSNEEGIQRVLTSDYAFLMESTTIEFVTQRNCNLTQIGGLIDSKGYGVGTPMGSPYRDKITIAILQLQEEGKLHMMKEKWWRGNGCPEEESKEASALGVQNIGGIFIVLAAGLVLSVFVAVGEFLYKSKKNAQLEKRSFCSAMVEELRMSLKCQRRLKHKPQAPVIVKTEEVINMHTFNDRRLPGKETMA
UniProt Q60492, whole entry: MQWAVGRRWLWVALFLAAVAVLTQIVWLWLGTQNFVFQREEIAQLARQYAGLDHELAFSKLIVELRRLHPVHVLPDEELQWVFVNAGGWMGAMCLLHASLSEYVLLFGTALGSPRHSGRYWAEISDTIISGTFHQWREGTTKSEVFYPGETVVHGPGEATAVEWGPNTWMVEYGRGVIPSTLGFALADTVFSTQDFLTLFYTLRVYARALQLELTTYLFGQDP
UniProt P30542, whole entry: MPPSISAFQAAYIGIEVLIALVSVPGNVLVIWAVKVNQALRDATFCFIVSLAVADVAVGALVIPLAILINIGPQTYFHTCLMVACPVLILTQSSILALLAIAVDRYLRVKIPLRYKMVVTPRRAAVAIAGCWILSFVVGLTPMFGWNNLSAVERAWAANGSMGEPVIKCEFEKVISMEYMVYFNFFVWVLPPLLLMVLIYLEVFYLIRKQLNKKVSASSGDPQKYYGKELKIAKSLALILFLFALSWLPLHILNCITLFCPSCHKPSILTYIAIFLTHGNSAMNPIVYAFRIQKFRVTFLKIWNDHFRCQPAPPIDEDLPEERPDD

| Structure (SMILES) | target | assay | system | conditions | Ki [nM] |
| --- | --- | --- | --- | --- | --- |
| CCCCCCCCCCCCCC[C@@H](O)[C@@H](O)[C@H](CO[C@H]1O[C@H](CO)[C@H](O)[C@H](O)[C@H]1O)NC(=O)CCCCCCCCCc1ccccc1 | Cd1d1, dimeric Ig fusion (Mus musculus, UniProt P11609) | binding, competitive microarray binding |  | with: printed glycolipid 100 µM | 4300 ± 1200 |
| CC(=O)N(CC#Cc1cccc(C(N)=O)c1)C[C@H]1C[C@@H](n2ccc3c(N)ncnc32)[C@H](O)[C@@H]1O | NNMT (Homo sapiens, UniProt P40261) | enzyme activity, inhibitor |  |  | 78 |
| COC(=O)[C@@]1(C)C=C(C(=O)OCc2ccccc2)C(=O)CC1 | MAPK8 | D-peptide displacement, fluorescence polarization |  |  | 27600 ± 3900 |
| CC[N+]1=C(C=CC=CC=CC=C2N(CCCCCC(=O)NCCCCC(NC(=O)CCCCCCC(=O)NCCCC[C@H](NC(=O)N[C@@H](CCC(=O)O)C(=O)O)C(=O)O)C(=O)O)c3ccc(S(=O)(=O)O)cc3C2(C)C)C(C)(C)c2cc(S(=O)(=O)[O-])ccc21 (stereo partly shown) | FOLH1 (Homo sapiens, UniProt Q04609) | enzyme activity, inhibitor |  | compound in water, with: [3H]NAAG 30 nM | 0.005 ± 0.0002 |
| CCCCOC(=O)NC(=O)/C(C#N)=C/c1ccc(Cl)c(Cl)c1 | PRKCA-binding protein, PDZ domain (Pick1, Rattus norvegicus, UniProt Q9EP80) | binding, fluorescence polarization |  | with: labelled hDAT C-terminal peptide | 12000 ± 2800 |
| Cc1ncsc1-c1ccc(CNC(=O)[C@@H]2C[C@@H](O)CN2C(=O)c2cccc(O)c2)cc1 | von Hippel-Lindau disease tumor suppressor, with elongin B, C (VHL, Homo sapiens, UniProt P40337) | inhibitor, fluorescence polarization | VHL-elonginB-elonginC complex | 1% DMSO, with: FAM-DEALA-Hyp-YIPD peptide | 2800 |
| CCCCCCCCC(CCC=CCCC(CCCCCCCC)C(=O)OCC1(CO)CC(=C(C)C)C(=O)O1)C(=O)OCC1(CO)CC(=C(C)C)C(=O)O1 (racemic) | PRKCA | binding, [3H]PDBu competition |  | with: phosphatidylserine 100 µg/mL | 8.4 ± 1.4 |
| O=C(OCc1ccccc1)c1cccc(OC2CCNCC2)c1 | Glycylpeptide N-tetradecanoyltransferase (Plasmodium falciparum, UniProt Q9U419) | enzyme activity, inhibitor, CPM fluorescence |  | with: substrate 4.0 µM | > 100000 |
| N=C(N)NCCC[C@H](NC(=O)c1cc(C(=O)O)cc([C@H]2CCN[C@@H]2C(=O)O)c1)C(=O)O | Grik2 (Rattus norvegicus, UniProt P42260) | binding, radioligand binding | Sf9 membranes | homomeric receptor, with: [3H]kainate | 10000 to 50000 |
| O[C@@H](c1ccc(F)cc1)C(F)(F)CCN1CCC(O)(c2ccc(Cl)cc2)CC1 (racemic) | SIGMAR1 (Cavia porcellus, UniProt Q60492) |  |  |  | 3.6 ± 0.8 |
| Cc1cccc(CSc2nc(N)c(C#N)c(-c3cccc(F)c3)c2C#N)n1 | ADORA1 (Homo sapiens, UniProt P30542) | radioligand competition binding | HEK293 membranes | 1 h, 25 °C, with: [3H]DPCPX 0.5 nM | 16 ± 4.6 |
| CC(C)[C@H](NC(=O)c1cc(C(=O)O)cc([C@H]2CCN[C@@H]2C(=O)O)c1)C(=O)O | NMDA receptor (rat) | binding, radioligand binding | rat cortical synaptosomes | with: [3H]CGP39653 | 3400 |
| CCCCCCCCC(CCCCCCCCC=CCCCCCCCCC(CCCCCCCC)C(=O)OCC1(CO)CC(=C(C)C)C(=O)O1)C(=O)OCC1(CO)CC(=C(C)C)C(=O)O1 (racemic) | PRKCA | binding, [3H]PDBu competition |  | with: phosphatidylserine 100 µg/mL | 30.9 ± 3.3 |
| COc1cccc(-c2c(C#N)c(N)nc(SCc3ncc[nH]3)c2C#N)c1 | ADORA2A (Homo sapiens, UniProt P29274) | radioligand displacement | HEK293 membranes | with: 0.8 nM [3H]ZM241385 | 38 ± 5.5 |
| CC(C)(C)OC(=O)C1=C[C@](C)(C(=O)OCC#Cc2ccncc2)CCC1=O | MAPK8 | D-peptide displacement, fluorescence polarization |  |  | 2900 ± 1100 |
| CCOc1cc(C(C)(C)C)ccc1C1=N[C@@H](c2ccc(Cl)cc2)[C@@H](c2ccc(Cl)cc2)N1C(=O)N1CCN(CC(=O)NCCOCCOCCOCCNC(=O)CN2CCN(C(=O)N3C(c4ccc(C(C)(C)C)cc4OCC)=N[C@H](c4ccc(Cl)cc4)[C@@H]3c3ccc(Cl)cc3)CC2=O)C(=O)C1 | E3 ubiquitin-protein ligase Mdm2, with p53 (MDM2, Homo sapiens, UniProt Q00987) | binding, fluorescence polarization competition |  |  | 120 ± 40 |

For quick reference, copied from above:
| Structure (SMILES) | target | assay | system | conditions | Ki [nM] |
| --- | --- | --- | --- | --- | --- |
| O=C(OCc1ccccc1)c1cccc(OC2CCNCC2)c1 | Glycylpeptide N-tetradecanoyltransferase (Plasmodium falciparum, UniProt Q9U419) | enzyme activity, inhibitor, CPM fluorescence |  | with: substrate 4.0 µM | > 100000 |
| CC(=O)N(CC#Cc1cccc(C(N)=O)c1)C[C@H]1C[C@@H](n2ccc3c(N)ncnc32)[C@H](O)[C@@H]1O | NNMT (Homo sapiens, UniProt P40261) | enzyme activity, inhibitor |  |  | 78 |
